Assay results gathered from unrelated publications.
Protocols differ between the studies behind these lines. ± gives the spread as reported.
rep main protease: Replicase polyprotein 1ab, main protease (rep, Severe acute respiratory syndrome coronavirus 2, UniProt P0DTD1)
rep nsp14 N7-methyltransferase: Replicase polyprotein 1ab, nsp14 N7-methyltransferase (rep, Severe acute respiratory syndrome coronavirus 2, UniProt P0DTD1)

| Molecule | tested on | assay | test system | conditions | how to read | measurement | value |
| --- | --- | --- | --- | --- | --- | --- | --- |
| C[C@]1(C(=O)N[C@@H]2CC[C@H]3C[C@@H]2CN3C(=O)Cc2cncc(O)c2)CCc2ccccc2C1 | rep main protease | enzyme activity, inhibitor | – | 5 µM, mean of runs | – | inhibition | 13% |
| CCOC(=O)c1c(-c2cccs2)csc1N | rep nsp14 N7-methyltransferase | N7-methyltransferase activity, inhibitor, Py-FLINT | – | – | – | Hill slope | 1.45 ± 0.17 |
| CN1Cc2c(ccc3c2OCO3)-c2ccc3cc4c(cc3c21)OCO4 | rep main protease | reporter gene (Gaussia luciferase), inhibitor | – | 20 µM | – | inhibition | 1.73% |
| Cc1ccccc1C1CC(=O)c2c(C)nc(N)nc2C1 (centres unmarked) | Replicase polyprotein 1ab, nsp13 helicase (rep, Severe acute respiratory syndrome coronavirus 2, UniProt P0DTD1) | binding, affinity selection mass spectrometry | – | – | baseline: other proteins in batch | fold enrichment | 0.895 |
| O=C(Oc1cncc(Cl)c1)c1ccc2[nH]c3c(c2c1)CCCC3 | rep main protease | inhibitor, biochemical | – | – | – | kinact/Ki | 5620 M⁻¹ s⁻¹ |
| O=C(Cc1cccnc1)N1CCC[C@H]([C@H]2CCN(C(=O)C3=CO[C@H]4C=CC(F)=CC4=C3)C2)C1 | rep main protease | enzyme activity, inhibitor | – | 5 µM, mean of runs | – | inhibition | 15.9% |
| Nc1ccccc1-c1noc(-c2ccncc2)n1 | Replicase polyprotein 1ab, papain-like protease (rep, Severe acute respiratory syndrome coronavirus 2, UniProt P0DTD1) | – | – | – | – | ligand efficiency | 0.391 |
| C1=CCC2(CC1)COC(c1ccco1)OC2 (centres unmarked) | rep main protease | viral replication, mKate2 reporter | SARS-CoV-2 | 20 µM | – | inhibition | -0.645% |
| O=C(c1ccc(=O)[nH]c1)N1CCCC[C@H](C2CN(C(=O)c3cncc4[nH]ccc34)C2)C1 | rep main protease | enzyme activity, inhibitor | – | 5 µM, run 1 | – | inhibition | 17.5% |
| Nc1ncnc2c([C@@H]3N[C@H](CO)[C@@H](O)[C@H]3O)c[nH]c12 | Lassa mammarenavirus | viral replication | HeLa, Josiah | 1.6 µM | – | inhibition | 0% |
| Cn1cnc(Cn2c(=O)[nH]/c(=N\c3cc4cn(C)nc4cc3Cl)n(Cc3cc(F)c(F)cc3F)c2=O)n1 | – | – | human, mild renal impairment | oral, 375 mg | – | any TEAE, moderate severity | 12.5% |
| CNC(=O)[C@@H](NC(=O)[C@H](CC(C)C)[C@H](O)C(=O)NO)C(C)(C)C | – | – | mouse | 60 µg/mouse, observed up to 0 h, together with: Daboia russelii venom, South, preincubated | – | time of death | > 24 h |
| Cc1cc(C(=O)N2CCC3(CC2)CN(C(=O)C[C@@H]2CC[C@H](O)C2)Cc2ccccc2O3)n[nH]1 | rep main protease | enzyme activity, inhibitor | – | 5 µM, run 2 | – | inhibition | 11.6% |
| C=C(CC[C@@H](C(=O)O)[C@H]1[C@H](O)C[C@@]2(C)C3=CC[C@H]4C(C)(C)C(=O)CC[C@]4(C)C3=CC[C@]12C)C(C)C | rep main protease | reporter gene (mKate2), inhibitor | – | 20 µM | – | inhibition | 0.51% |
| CC[C@H](C)[C@H](NC(=O)[C@H](CC(C)C)NC(=O)[C@H](Cc1c[nH]c2ccccc12)NC(=O)[C@H](CCC(N)=O)NC(=O)[C@@H](NC(=O)[C@H](Cc1ccccc1)NC(=O)[C@H](C)NC(=O)[C@H](CCCCNC(=O)COCCOCCNC(=O)COCCOCCNC(=O)CC[C@H](NC(=O)CCCCCCCCCCCCCCCCCCC(=O)O)C(=O)O)NC(=O)[C@H](CCC(N)=O)NC(=O)[C@H](C)NC(=O)[C@@H](NC(=O)[C@H](CCCCN)NC(=O)[C@H](CC(=O)O)NC(=O)[C@H](CC(C)C)NC(=O)C(C)(C)NC(=O)[C@@H](NC(=O)[C@H](CO)NC(=O)[C@H](Cc1ccc(O)cc1)NC(=O)[C@H](CC(=O)O)NC(=O)[C@H](CO)NC(=O)[C@@H](NC(=O)[C@H](Cc1ccccc1)NC(=O)[C@@H](NC(=O)CNC(=O)[C@H](CCC(=O)O)NC(=O)C(C)(C)NC(=O)[C@@H](N)Cc1ccc(O)cc1)[C@@H](C)O)[C@@H](C)O)[C@@H](C)CC)[C@@H](C)CC)C(C)C)C(=O)N[C@@H](C)C(=O)NCC(=O)NCC(=O)N1CCC[C@H]1C(=O)N[C@@H](CO)C(=O)N[C@@H](CO)C(=O)NCC(=O)N[C@@H](C)C(=O)N1CCC[C@H]1C(=O)N1CCC[C@H]1C(=O)N1CCC[C@H]1C(=O)N[C@@H](CO)C(N)=O | – | – | healthy subjects, single ascending dose | 0.25 mg, baseline | – | serum lipase | 20.2 ± 8.4 U/L |
| Cc1cnoc1C(=O)NC[C@@H]1CC2(CCOCC2)CN1C(=O)c1cc(F)cc(C(N)=O)c1 | rep main protease | enzyme activity, inhibitor | – | 5 µM, run 1 | – | inhibition | 12.9% |
| C=CS(=O)(=O)N(c1ccc(C(C)(C)C)cc1)C(C(=O)NCCc1cccc(Cl)c1)c1cccnc1 (centres unmarked) | rep main protease | enzyme activity, inhibitor | – | – | – | kinact | 0.017 s⁻¹ |
| Rhodiosin | rep main protease | inactivator | – | – | – | kinact | 0.000438 s⁻¹ |
| CCOC(=O)c1c(NC(=O)c2cc3ccccc3o2)sc(C)c1-c1ccccc1 | rep nsp14 N7-methyltransferase | N7-methyltransferase activity, inhibitor, Py-FLINT | – | – | – | Hill slope | 0.85 ± 0.17 |
| N=C(N)c1ccccc1 | rep main protease | reporter gene (mKate2), inhibitor | – | 20 µM | – | inhibition | -0.241% |

Excerpt of the above:
| Molecule | tested on | assay | test system | conditions | how to read | measurement | value |
| --- | --- | --- | --- | --- | --- | --- | --- |
| N=C(N)c1ccccc1 | rep main protease | reporter gene (mKate2), inhibitor | – | 20 µM | – | inhibition | -0.241% |
| C=CS(=O)(=O)N(c1ccc(C(C)(C)C)cc1)C(C(=O)NCCc1cccc(Cl)c1)c1cccnc1 (centres unmarked) | rep main protease | enzyme activity, inhibitor | – | – | – | kinact | 0.017 s⁻¹ |
| CCOC(=O)c1c(NC(=O)c2cc3ccccc3o2)sc(C)c1-c1ccccc1 | rep nsp14 N7-methyltransferase | N7-methyltransferase activity, inhibitor, Py-FLINT | – | – | – | Hill slope | 0.85 ± 0.17 |
